Measurements of several laboratories.
Several values in a cell are separate wells, animals, samples, runs or records.

With `CC1(C)CNC(=O)c2ccccc21` the half-life was 1.3 h (rat, plasma; oral, 5 mg/kg, single dose).
With `CSCOC1C(=O)C2(C)C(OCSC)CC3OCC3(OC(C)=O)C2C(OC(=O)c2ccccc2)C2(O)CC(OC(=O)C(O)C(C=C(C)C)NC(=O)OC(C)(C)C)C(C)=C1C2(C)C` (stereo not shown) the half-life was 6.1 h (female Sprague-Dawley rat, plasma; intravenous, 2 mg/kg).
`CCNC(=O)[C@@H]1CCCN1C(=O)[C@H](CCCNC(=N)N)NC(=O)[C@H](CC(C)C)NC(=O)[C@@H](CC(C)C)NC(=O)[C@H](Cc1ccc(O)cc1)NC(=O)[C@H](CO)NC(=O)[C@H](Cc1c[nH]c2ccccc12)NC(=O)[C@H](Cc1c[nH]cn1)NC(=O)[C@@H]1CCC(=O)N1` has a half-life of 18.4 h (male Sprague-Dawley rat, plasma; subcutaneous, 12.5 mg/kg, single dose).
`Nc1nc(Cl)nc2c1ncn2Cc1cc(OCC(F)F)cc(OC(F)F)c1` has a half-life of 7.92 h (Sprague-Dawley rat, plasma; oral, 5 mg/kg).
With `CC12CC3CC(C)(C1)CC(NC(=O)Nc1ccc(C(=O)N4CCC[C@H](C(N)=O)C4)cc1F)(C3)C2` the half-life was 5.18 h (Sprague-Dawley rat, plasma; oral, 50 mg/kg).
For `COc1ccc(COc2c(OC)ccc3c2C[C@@H](C(=O)O)N(c2nc4ccc(F)cc4o2)C3)cn1`, the half-life was 2.3 h (male Sprague-Dawley rat, plasma; intravenous, 1 mg/kg).
With `Cc1cc(CNCCCCCC(=O)NO)ccc1OCc1cccc(-c2ccccc2)c1C` the half-life was 8.36 h and 8.37 h (rat, plasma; intravenous, 10 mg/kg).
For `O=C(c1ccccc1)c1cc(O)c(-c2cc(Cl)cc(Cl)c2)c(O)c1`, the half-life was 3.03 h (male Sprague-Dawley rat, plasma; intravenous, 5 mg/kg, single dose).
`OC1(C(F)(F)F)CCN(c2nc(Nc3ccnc(C(F)(F)F)c3)nc(-c3cccc(C(F)(F)F)n3)n2)C1` (stereo not shown) gave a half-life of 16.3 h (Sprague-Dawley rat, plasma; intravenous, 1 mg/kg).
The half-life of `Cc1ccc(OCC(=O)N(Cc2cccs2)c2ccn[nH]2)cc1` is reported as 2.15 h (female Sprague-Dawley rat, plasma; oral, 30 mg/kg, single dose).
`N=C(N)NCCC[C@H](NC(=O)[C@@H]1CCCN1C(=O)[C@H](Cc1ccccc1)NC(=O)[C@@H]1CCCN1C(=O)[C@H](Cc1c[nH]cn1)NC(=O)[C@@H](N)Cc1ccccc1)C(=O)O` gave a half-life of 0.113 h (male Sprague-Dawley rat, plasma; intravenous, 10 mg/kg, single dose).
For `C[Si](C)(C)C[C@@H](CN)CC(=O)O`, the half-life was 2.49 h (male Sprague-Dawley rat, plasma; oral, 100 mg/kg, single dose).
`CC(=O)Oc1c2c(c3ccc4c(c3c1OC(C)=O)C=CC(=O)C4(C)C)OC[C@@H]2C` gave a half-life of 1.82 h (female Sprague-Dawley rat, serum; intravenous, 10 mg/kg).
For `NC(COc1ccccc1C(F)(F)F)c1ccccc1` (stereo not shown), the half-life was 3.2 h (male Sprague-Dawley rat, serum; intravenous, 5 mg/kg).
`Cc1cc(/C=C2\CN(C(C)C)C/C(=C\c3cc(C)c(O)c(C)c3)C2=O)cc(C)c1O` has a half-life of 2.49 h (female Sprague-Dawley rat, plasma; intravenous, 20 mg/kg).
For `N#Cc1cnc2cc(OCC3CCNCC3)c(F)cc2c1Nc1cc(F)c(OCc2cccc(Cl)n2)cc1Cl`, the half-life was 8 h (male Sprague-Dawley rat, plasma; oral, 100 mg/kg).
`C[Si]1(C[C@H](CN)CC(=O)O)CCCC1` has a half-life of 2.23 h (male Sprague-Dawley rat, plasma; oral, 100 mg/kg, single dose).
`Cn1cc(-c2cc(N3CCCS3(=O)=O)ccc2N[C@H]2CC[C@H](C)CC2)c2cc[nH]c2c1=O` has a half-life of 2.06 h (Sprague-Dawley rat, plasma; oral, 3 mg/kg).
`CCCN(c1ccc(C(=O)NCCC(=O)O)cc1)S(=O)(=O)c1cc(C)c(-c2ccc(C(C)(C)C)cc2)c(C)c1` gave a half-life of 1.5 h (rat, plasma; intravenous, 2 mg/kg).
